Measurements pooled from the literature.
A part holds a random share of what one study measured.
Sequence of UniProt Q9UIK4 (whole entry, looked up): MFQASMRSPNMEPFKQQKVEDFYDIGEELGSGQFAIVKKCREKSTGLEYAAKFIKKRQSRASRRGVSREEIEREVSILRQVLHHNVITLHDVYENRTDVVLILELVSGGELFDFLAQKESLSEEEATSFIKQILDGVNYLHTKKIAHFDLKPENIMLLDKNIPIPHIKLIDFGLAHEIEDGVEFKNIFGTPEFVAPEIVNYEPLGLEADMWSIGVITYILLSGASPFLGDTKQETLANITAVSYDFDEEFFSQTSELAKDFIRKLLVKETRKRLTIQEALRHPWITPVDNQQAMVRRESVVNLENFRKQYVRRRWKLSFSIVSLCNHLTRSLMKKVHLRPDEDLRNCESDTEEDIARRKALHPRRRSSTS
Sequence of UniProt P41145 (whole entry, looked up): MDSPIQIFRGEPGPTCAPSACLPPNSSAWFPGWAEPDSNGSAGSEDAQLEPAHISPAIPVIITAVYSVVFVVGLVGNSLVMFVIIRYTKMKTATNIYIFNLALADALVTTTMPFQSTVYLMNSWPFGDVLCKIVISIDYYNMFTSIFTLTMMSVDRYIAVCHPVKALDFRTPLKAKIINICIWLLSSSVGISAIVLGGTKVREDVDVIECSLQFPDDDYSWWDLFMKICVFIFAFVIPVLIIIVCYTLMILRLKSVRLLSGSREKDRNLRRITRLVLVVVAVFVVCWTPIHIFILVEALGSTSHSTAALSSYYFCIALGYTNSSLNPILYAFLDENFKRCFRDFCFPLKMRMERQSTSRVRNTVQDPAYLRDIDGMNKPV
Sequence of UniProt O14920 (whole entry, looked up): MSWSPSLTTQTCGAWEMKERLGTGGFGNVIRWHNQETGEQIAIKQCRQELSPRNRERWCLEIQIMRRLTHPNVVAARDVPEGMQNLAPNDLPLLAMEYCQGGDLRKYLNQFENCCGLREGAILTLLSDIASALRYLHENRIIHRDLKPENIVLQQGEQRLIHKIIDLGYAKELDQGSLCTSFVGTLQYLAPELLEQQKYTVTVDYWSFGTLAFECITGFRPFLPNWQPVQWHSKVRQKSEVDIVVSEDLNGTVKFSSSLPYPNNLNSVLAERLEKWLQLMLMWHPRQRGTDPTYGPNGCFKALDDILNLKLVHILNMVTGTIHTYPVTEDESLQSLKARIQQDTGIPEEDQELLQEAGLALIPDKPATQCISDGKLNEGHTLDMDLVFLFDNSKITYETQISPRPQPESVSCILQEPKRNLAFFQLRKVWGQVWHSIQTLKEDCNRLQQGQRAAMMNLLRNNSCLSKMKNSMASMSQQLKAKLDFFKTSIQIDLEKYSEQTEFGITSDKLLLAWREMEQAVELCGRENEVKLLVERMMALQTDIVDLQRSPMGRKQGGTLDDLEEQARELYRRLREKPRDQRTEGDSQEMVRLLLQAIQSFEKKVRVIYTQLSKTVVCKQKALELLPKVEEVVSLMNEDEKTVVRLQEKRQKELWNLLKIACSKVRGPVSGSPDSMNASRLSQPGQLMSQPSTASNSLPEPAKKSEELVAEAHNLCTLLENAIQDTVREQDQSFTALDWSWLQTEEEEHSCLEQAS
Sequence of UniProt Q13976 (whole entry, looked up): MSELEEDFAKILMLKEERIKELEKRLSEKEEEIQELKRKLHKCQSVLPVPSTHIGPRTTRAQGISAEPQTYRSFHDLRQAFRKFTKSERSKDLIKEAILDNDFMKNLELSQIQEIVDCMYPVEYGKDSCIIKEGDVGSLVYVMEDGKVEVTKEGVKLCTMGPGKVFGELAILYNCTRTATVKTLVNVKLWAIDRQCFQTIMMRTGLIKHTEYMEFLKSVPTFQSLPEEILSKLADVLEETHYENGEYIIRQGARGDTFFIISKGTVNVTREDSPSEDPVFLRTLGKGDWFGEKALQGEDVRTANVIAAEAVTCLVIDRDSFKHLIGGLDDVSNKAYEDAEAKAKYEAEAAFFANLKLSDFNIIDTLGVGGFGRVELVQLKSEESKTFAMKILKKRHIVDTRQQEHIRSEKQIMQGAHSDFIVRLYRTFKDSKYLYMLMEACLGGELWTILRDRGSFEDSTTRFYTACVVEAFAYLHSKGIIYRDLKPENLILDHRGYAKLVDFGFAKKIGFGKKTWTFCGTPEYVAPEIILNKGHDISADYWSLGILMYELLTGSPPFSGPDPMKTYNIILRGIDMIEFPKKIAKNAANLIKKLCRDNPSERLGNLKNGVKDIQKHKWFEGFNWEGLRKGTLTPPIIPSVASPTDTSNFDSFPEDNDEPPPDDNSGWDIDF
Sequence of UniProt P22455 (whole entry, looked up): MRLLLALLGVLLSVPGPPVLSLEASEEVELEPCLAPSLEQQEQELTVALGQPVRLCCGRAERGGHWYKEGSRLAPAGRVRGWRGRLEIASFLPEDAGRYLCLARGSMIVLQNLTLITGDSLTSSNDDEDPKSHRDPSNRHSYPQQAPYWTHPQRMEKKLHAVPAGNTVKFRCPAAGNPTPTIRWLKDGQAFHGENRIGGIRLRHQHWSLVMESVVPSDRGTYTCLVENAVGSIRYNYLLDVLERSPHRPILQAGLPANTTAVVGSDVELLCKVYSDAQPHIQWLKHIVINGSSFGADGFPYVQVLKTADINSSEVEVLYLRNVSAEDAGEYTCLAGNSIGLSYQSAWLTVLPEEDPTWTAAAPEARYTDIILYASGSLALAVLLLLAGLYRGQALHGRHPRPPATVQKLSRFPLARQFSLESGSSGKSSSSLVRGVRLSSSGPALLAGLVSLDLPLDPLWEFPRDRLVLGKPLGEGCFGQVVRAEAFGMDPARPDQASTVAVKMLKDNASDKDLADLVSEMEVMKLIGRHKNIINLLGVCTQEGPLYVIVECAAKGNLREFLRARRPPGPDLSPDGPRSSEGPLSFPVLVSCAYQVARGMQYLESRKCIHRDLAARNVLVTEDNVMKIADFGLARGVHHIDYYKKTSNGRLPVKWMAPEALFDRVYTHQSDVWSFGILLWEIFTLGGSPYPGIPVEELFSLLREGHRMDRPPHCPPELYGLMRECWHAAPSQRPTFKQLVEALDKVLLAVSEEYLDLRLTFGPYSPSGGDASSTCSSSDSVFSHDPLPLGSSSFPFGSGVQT
Sequence of UniProt Q9UKP6 (whole entry, looked up): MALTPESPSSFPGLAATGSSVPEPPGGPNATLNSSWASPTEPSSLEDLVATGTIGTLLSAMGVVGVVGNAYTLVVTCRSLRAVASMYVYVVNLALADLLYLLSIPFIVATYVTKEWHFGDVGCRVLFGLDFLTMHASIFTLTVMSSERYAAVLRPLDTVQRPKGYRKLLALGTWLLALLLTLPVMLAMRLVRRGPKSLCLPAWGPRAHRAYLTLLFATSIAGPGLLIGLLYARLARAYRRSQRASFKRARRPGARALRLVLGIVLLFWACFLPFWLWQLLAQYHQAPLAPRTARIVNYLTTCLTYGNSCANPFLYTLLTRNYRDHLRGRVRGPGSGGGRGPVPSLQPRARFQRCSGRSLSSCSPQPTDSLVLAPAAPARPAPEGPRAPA
Sequence of UniProt P46091 (whole entry, looked up): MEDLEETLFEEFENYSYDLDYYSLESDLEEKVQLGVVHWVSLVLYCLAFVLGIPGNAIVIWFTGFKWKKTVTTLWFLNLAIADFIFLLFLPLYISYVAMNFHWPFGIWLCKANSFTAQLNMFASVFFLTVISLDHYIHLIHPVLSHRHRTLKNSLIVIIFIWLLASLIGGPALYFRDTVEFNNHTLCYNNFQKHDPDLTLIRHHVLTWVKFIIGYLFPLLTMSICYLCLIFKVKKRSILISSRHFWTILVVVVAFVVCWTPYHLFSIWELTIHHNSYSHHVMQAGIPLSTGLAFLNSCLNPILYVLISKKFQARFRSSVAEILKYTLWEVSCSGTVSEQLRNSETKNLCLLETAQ
Sequence of UniProt Q00535 (whole entry, looked up): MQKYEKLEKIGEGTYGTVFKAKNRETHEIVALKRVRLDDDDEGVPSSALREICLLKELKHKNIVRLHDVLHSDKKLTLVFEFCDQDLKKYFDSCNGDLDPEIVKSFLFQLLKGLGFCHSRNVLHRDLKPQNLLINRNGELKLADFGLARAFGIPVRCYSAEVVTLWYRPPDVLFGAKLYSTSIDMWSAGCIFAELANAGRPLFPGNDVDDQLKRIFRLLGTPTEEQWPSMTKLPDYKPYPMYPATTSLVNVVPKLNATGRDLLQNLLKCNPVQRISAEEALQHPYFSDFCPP
Sequence of UniProt P11802 (whole entry, looked up): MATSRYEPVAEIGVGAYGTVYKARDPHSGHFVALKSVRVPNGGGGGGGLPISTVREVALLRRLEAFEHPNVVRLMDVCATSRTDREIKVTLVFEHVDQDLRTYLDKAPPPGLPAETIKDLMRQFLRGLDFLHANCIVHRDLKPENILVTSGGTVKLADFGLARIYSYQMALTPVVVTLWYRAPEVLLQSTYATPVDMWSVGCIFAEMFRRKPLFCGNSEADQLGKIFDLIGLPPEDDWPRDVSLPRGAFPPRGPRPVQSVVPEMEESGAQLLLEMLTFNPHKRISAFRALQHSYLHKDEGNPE

Set 1 — read-out: binding; concentration: 1 µM
SMILES: COc1ccc2[nH]c3c4[nH]c5ccc(OC)cc5c4c4c(c3c2c1)C(=O)NC4=O
It gave 71% for remaining binding (Tyrosine-protein kinase Blk (BLK, Homo sapiens, UniProt P51451); competition with immobilised ligand).
Serine/threonine-protein kinase 25 (STK25, Homo sapiens, UniProt O00506); competition with immobilised ligand — remaining binding: 89%.
It gave 57% for remaining binding (Aurora kinase A (AURKA, Homo sapiens, UniProt O14965); competition with immobilised ligand).
The remaining binding was 88% (Tyrosine-protein kinase Tec (TEC, Homo sapiens, UniProt P42680); competition with immobilised ligand).
The remaining binding was 4.9% (Death-associated protein kinase 2 (DAPK2, Homo sapiens, UniProt Q9UIK4)).
It gave 83% for remaining binding (Mitogen-activated protein kinase kinase kinase 10 (MAP3K10, Homo sapiens, UniProt Q02779)).

Set 2 — read-out: cell-free assay; method: competition with immobilised ligand; concentration: 1 µM
SMILES: CCC(=O)N[C@@H]1CC[C@H](C(=O)N(C)c2ccc(-c3nc4ccccc4o3)cc2)C1
The remaining binding was 100% (Cyclin-dependent kinase 11B (CDK11B, Homo sapiens, UniProt P21127)).
For Fibroblast growth factor receptor 4 (FGFR4, Homo sapiens, UniProt P22455): remaining binding read 89%.
The remaining binding was 84% (Serine/threonine-protein kinase N1 (PKN1, Homo sapiens, UniProt Q16512)).
Serine/threonine-protein kinase WNK3 (WNK3, Homo sapiens, UniProt Q9BYP7) — remaining binding: 100%.
The remaining binding was 100% (Serine/threonine-protein kinase Sgk3 (SGK3, Homo sapiens, UniProt Q96BR1)).

Set 3 — host: mouse; medium: microsomes or S9; concentration: 2 µM; time: 0.5 h
For `C1CN(c2nc(N3CCOCC3)c3nn[nH]c3n2)CCO1`, the remaining compound was 41.2%.
The remaining compound of `CCc1c(C(=O)OC(C)c2nnc(C)o2)[nH]c(C)c1C(C)=O` (stereo not shown) is reported as 66.7%.
The remaining compound of `CC1=CC(=O)/C(=C(/C)Nc2cc(-c3ccccc3)n[nH]2)C(=O)O1` is reported as 73.7%.
`OC(CN1CCCC1CC1CCCCC1)Cn1cccn1` (stereo not shown) has a remaining compound of 16.2%.
`CN(c1ccc(Cl)nn1)c1ccc(N)cc1Cl` has a remaining compound of 34.5%.
For `Clc1ccc(OCc2nnc(-c3cccnc3)[nH]2)cc1`, the remaining compound was 31%.

Set 4 — SMILES: c1ccc(-c2n[nH]c3c2oc2ccccc23)cc1; read-out: enzyme activity; action: inhibitor; concentration: 0.5 µM; baseline: control
Serine/threonine-protein kinase OSR1 (OXSR1, Homo sapiens, UniProt O95747) — remaining activity: 101%.
The remaining activity was 87.5% (Calcium/calmodulin-dependent protein kinase kinase 2 (CAMKK2, Homo sapiens, UniProt Q96RR4)).
The remaining activity was 101% (Serine/threonine-protein kinase Chk2 (CHEK2, Homo sapiens, UniProt O96017)).
It gave 94.1% for remaining activity (TGF-beta receptor type-2 (TGFBR2, Homo sapiens, UniProt P37173)).
It gave 87.9% for remaining activity (Cyclin-dependent kinase 4, with cyclin D1 (CDK4, Homo sapiens, UniProt P11802)).
It gave 103% for remaining activity (cGMP-dependent protein kinase 1, isoform beta (PRKG1, Homo sapiens, UniProt Q13976)).
The remaining activity was 92.2% (Inhibitor of nuclear factor kappa-B kinase subunit beta (IKBKB, Homo sapiens, UniProt O14920)).
The remaining activity was 96.5% (Mitogen-activated protein kinase 9 (MAPK9, Homo sapiens, UniProt P45984)).
The remaining activity was 108% (Serine/threonine-protein kinase 10 (STK10, Homo sapiens, UniProt O94804)).
Death-associated protein kinase 2 (DAPK2, Homo sapiens, UniProt Q9UIK4) — remaining activity: 71.2%.
For cAMP-dependent protein kinase catalytic subunit alpha (PRKACA, Homo sapiens, UniProt P17612): remaining activity read 97.5%.
Inhibitor of nuclear factor kappa-B kinase subunit epsilon (IKBKE, Homo sapiens, UniProt Q14164) — remaining activity: 101%.
For Protein kinase C beta type, isoform beta-I (PRKCB, Homo sapiens, UniProt P05771): remaining activity read 103%.
Protein kinase C alpha type (PRKCA, Homo sapiens, UniProt P17252) — remaining activity: 92.9%.
The remaining activity was 99% (Cyclin-dependent kinase 5, with p25 (CDK5, Homo sapiens, UniProt Q00535)).
Serine/threonine-protein kinase Nek2 (NEK2, Homo sapiens, UniProt P51955) — remaining activity: 99.8%.
It gave 107% for remaining activity (Serine/threonine-protein kinase STK11 (STK11, Homo sapiens, UniProt Q15831)).
The remaining activity was 102% (Tyrosine-protein kinase Lyn, isoform B (LYN, Homo sapiens, UniProt P07948)).
Mitogen-activated protein kinase kinase kinase 3 (MAP3K3, Homo sapiens, UniProt Q99759) — remaining activity: 94.7%.
For G protein-coupled receptor kinase 3 (GRK3, Homo sapiens, UniProt P35626): remaining activity read 119%.
For Death-associated protein kinase 1 (DAPK1, Homo sapiens, UniProt P53355): remaining activity read 71%.
For STE20/SPS1-related proline-alanine-rich protein kinase (STK39, Homo sapiens, UniProt Q9UEW8): remaining activity read 120%.
For Calcium/calmodulin-dependent protein kinase type II subunit delta (CAMK2D, Homo sapiens, UniProt Q13557): remaining activity read 94.5%.
TGF-beta receptor type-1 (TGFBR1, Homo sapiens, UniProt P36897) — remaining activity: 94.9%.

Set 5 — Compound: CCN(c1nc(N)c(C(=O)N=C(N)N)nc1Cl)C(C)C; read-out: β-arrestin recruitment; action: agonist; method: PRESTO-Tango; concentration: 10 µM; baseline: untreated
Kappa-type opioid receptor (OPRK1, Homo sapiens, UniProt P41145) — “fold over basal”: 1.37 fold.
The “fold over basal” was 0.96 fold (Urotensin-2 receptor (UTS2R, Homo sapiens, UniProt Q9UKP6)).
For Galanin receptor type 1 (GALR1, Homo sapiens, UniProt P47211): “fold over basal” read 0.78 fold.
Lysophosphatidic acid receptor 4 (LPAR4, Homo sapiens, UniProt Q99677) — “fold over basal”: 0.72.
It gave 0.74 fold for “fold over basal” (Metabotropic glutamate receptor 8 (GRM8, Homo sapiens, UniProt O00222)).
The “fold over basal” was 0.77 (Chemerin-like receptor 2 (CMKLR2, Homo sapiens, UniProt P46091)).

Mixed results — action: inhibitor; concentration: 10 µM; baseline: control
Target: Diamine acetyltransferase 1 (Homo sapiens, UniProt P21673)
One construct used (P21673 1-171): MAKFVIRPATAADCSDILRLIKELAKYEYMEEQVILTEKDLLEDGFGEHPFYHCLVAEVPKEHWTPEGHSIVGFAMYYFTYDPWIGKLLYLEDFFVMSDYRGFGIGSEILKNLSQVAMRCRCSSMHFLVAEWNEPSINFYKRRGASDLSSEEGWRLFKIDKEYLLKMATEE
`CC1(C)CC[C@]2(C(=O)O[C@@H]3O[C@H](CO[C@@H]4O[C@H](CO)[C@@H](O)[C@H](O)[C@H]4O)[C@@H](O)[C@H](O)[C@H]3O)CC[C@]3(C)C(=CC[C@@H]4[C@@]5(C)CC[C@H](O[C@@H]6OC[C@H](O)[C@H](O)[C@H]6O)[C@@](C)(CO)[C@@H]5CC[C@]43C)[C@@H]2C1` has a remaining activity of 104%.
`O=c1c(O)c(-c2ccc(O)c(O)c2)oc2c(O[C@@H]3O[C@H](CO)[C@@H](O)[C@H](O)[C@H]3O)c(O)cc(O)c12` has a remaining activity of 103%.
